Measurements pooled from the literature.
A part holds a random share of what one study measured.
Sequence of UniProt P37023 (whole entry, looked up): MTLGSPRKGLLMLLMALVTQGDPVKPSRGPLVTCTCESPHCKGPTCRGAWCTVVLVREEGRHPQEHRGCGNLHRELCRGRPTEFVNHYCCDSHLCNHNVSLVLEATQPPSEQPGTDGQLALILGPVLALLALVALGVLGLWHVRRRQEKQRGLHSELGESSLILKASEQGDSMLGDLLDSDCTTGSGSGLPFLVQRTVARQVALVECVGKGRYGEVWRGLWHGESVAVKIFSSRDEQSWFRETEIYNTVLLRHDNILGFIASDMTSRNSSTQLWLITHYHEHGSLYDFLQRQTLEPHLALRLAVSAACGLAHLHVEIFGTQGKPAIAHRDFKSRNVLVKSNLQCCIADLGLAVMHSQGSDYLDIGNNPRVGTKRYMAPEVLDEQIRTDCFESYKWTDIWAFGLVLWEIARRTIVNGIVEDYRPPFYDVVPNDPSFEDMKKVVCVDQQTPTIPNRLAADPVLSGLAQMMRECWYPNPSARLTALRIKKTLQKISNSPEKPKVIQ
Sequence of UniProt P43403 (whole entry, looked up): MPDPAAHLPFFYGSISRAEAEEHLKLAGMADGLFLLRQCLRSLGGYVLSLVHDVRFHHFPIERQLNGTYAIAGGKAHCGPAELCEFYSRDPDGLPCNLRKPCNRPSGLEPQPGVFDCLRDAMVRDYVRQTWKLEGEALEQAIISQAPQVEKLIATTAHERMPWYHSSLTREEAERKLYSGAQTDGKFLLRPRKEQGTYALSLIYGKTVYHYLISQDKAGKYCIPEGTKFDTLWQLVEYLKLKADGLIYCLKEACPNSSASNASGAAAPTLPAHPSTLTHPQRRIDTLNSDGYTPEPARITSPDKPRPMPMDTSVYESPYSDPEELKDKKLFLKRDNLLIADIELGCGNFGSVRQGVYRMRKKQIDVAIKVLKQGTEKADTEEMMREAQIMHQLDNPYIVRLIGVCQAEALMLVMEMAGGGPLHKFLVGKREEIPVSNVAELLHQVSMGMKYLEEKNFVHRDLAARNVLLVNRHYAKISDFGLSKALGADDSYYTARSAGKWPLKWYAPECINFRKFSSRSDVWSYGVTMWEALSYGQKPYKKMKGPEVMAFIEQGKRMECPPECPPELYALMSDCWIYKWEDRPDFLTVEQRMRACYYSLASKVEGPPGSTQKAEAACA
Sequence of UniProt P42336 (whole entry, unmodified, looked up): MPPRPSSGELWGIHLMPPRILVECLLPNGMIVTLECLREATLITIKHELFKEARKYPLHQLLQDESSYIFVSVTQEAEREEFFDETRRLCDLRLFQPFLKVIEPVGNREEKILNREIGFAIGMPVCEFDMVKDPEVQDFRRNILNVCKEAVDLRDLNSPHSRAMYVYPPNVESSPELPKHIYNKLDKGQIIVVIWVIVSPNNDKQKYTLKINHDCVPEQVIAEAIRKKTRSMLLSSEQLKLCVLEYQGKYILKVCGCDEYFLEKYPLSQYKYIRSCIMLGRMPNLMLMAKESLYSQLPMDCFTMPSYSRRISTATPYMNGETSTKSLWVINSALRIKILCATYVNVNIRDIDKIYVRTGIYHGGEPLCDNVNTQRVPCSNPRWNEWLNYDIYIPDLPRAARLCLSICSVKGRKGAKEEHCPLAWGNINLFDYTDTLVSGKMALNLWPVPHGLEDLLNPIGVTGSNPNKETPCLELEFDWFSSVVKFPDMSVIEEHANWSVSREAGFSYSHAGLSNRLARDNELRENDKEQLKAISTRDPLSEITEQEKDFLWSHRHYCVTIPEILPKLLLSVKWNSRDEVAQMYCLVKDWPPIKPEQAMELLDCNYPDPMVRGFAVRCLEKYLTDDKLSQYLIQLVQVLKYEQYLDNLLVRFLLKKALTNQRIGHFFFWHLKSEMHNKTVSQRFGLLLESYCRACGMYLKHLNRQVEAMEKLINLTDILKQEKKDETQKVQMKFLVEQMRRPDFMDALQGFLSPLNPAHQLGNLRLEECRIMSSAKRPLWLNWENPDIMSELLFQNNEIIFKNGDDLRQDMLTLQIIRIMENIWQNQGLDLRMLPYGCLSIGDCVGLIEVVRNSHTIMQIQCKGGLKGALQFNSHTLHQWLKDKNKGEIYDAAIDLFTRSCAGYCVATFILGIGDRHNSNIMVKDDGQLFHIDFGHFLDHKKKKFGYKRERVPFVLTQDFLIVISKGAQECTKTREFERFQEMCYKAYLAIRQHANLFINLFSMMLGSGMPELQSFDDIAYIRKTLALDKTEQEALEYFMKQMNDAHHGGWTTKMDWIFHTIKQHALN
Sequence of UniProt P51955 (whole entry, looked up): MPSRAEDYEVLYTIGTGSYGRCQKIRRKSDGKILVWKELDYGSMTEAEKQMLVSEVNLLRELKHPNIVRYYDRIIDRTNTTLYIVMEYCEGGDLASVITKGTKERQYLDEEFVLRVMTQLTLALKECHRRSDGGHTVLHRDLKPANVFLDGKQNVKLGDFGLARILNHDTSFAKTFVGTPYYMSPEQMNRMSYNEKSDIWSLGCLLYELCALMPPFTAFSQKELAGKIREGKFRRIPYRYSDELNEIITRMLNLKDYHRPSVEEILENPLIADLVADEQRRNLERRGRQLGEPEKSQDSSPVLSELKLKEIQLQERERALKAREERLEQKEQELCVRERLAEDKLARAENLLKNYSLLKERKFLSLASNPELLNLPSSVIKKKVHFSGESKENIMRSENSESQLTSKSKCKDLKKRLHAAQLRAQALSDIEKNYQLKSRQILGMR
Sequence of UniProt Q9H2G2 (whole entry, looked up): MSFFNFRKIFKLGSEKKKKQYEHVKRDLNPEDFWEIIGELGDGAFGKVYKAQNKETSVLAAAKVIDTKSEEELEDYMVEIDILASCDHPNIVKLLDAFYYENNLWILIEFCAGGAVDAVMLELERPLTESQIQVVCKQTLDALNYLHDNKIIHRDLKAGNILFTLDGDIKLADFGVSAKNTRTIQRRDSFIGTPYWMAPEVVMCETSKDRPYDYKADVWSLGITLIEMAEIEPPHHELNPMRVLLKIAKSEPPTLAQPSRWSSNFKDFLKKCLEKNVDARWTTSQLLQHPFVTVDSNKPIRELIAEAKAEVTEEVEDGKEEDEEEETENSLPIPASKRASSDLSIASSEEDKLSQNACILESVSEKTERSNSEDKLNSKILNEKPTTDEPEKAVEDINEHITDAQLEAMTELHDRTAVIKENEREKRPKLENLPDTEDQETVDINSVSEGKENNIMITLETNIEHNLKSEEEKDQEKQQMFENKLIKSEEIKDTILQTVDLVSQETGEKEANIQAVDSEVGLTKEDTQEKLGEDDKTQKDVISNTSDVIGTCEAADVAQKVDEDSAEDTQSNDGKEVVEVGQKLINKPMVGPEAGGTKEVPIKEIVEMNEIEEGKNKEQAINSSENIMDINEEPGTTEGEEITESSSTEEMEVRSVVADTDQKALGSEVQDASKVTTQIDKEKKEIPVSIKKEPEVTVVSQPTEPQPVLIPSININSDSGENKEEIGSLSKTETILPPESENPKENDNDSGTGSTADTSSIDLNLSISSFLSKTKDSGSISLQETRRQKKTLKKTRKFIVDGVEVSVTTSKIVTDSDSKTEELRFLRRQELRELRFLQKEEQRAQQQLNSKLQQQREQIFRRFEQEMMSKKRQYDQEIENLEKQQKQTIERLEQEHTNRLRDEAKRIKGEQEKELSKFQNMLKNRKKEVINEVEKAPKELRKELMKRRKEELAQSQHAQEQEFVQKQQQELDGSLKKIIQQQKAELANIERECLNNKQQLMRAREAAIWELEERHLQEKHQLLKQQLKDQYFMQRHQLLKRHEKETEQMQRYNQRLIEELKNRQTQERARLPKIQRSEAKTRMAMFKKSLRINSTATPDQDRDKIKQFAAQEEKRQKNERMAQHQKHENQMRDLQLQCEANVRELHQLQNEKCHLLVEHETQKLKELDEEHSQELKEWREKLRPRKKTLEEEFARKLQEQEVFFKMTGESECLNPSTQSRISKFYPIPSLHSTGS

Set 1
Target: Ribosomal protein S6 kinase alpha-3 (RPS6KA3, Homo sapiens, UniProt P51812)
Sequence of UniProt P51812 (whole entry, looked up): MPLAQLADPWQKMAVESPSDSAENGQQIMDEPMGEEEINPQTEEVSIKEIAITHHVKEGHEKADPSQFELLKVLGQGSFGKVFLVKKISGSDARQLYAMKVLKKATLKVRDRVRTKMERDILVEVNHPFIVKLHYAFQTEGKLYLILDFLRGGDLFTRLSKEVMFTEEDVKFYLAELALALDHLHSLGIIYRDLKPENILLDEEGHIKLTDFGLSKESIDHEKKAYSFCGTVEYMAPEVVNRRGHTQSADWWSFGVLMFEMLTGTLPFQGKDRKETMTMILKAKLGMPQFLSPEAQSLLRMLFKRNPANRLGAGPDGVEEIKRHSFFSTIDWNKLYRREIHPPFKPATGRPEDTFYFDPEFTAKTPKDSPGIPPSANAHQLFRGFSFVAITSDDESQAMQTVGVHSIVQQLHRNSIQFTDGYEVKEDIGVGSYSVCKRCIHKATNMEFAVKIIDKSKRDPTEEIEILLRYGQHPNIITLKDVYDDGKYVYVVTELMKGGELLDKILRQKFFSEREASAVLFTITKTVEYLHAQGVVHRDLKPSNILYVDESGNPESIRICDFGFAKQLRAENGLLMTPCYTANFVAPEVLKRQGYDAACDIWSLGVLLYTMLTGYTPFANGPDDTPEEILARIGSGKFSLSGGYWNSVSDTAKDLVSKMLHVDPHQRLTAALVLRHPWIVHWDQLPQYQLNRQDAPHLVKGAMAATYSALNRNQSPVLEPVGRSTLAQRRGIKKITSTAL
Effect on: enzyme activity
Mode: inhibitor
Concentration: 0.5 µM
Reference: control
`O=c1c2ccccc2[nH]c(=S)n1CCN1CCC(=C(c2ccc(F)cc2)c2ccc(F)cc2)CC1` gave a remaining activity of 99.8%.
`Nc1[nH]nc2nc3ccccc3nc12` gave a remaining activity of 88%.
`Cc1nc(-c2ccccc2)c(-c2ccncc2)o1` has a remaining activity of 103%.
The remaining activity of `COc1cc2ncnc(Nc3ccc(Oc4ccccc4)cc3)c2cc1OC` is reported as 97.8%.
The remaining activity of `Cn1c2ccccc2c2c3c(c4c5ccccc5n(CCC#N)c4c21)CNC3=O` is reported as 5.93%.
`O=C(Nc1cccc(Nc2cc(Nc3cccc(C(F)(F)F)c3)ncn2)c1)C1CC1` has a remaining activity of 105%.
For `Cc1ccc(Nc2nccc(N(C)c3ccc4c(C)n(C)nc4c3)n2)cc1S(N)(=O)=O`, the remaining activity was 99.1%.
`OCC(O)CCON=C1C(c2c(O)[nH]c3ccccc23)=Nc2ccccc21` (centres unmarked) gave a remaining activity of 18.3%.
`N#CC(C#N)=C(N)/C(C#N)=C/c1ccc(O)cc1` has a remaining activity of 94.6%.
`COc1ccc(OC)c2c(=S)c3ccccc3[nH]c12` has a remaining activity of 108%.
`CC(C)[C@H](CO)Nc1nc(Nc2cc(N)cc(Cl)c2)c2ncn(C(C)C)c2n1` has a remaining activity of 54.1%.
`Nc1ncnc2n[nH]c(Nc3ccc(F)cc3)c12` has a remaining activity of 89.8%.
For `NCCNc1ncc(C(N)=O)c(Nc2cccc(C(F)(F)F)c2)n1`, the remaining activity was 72.4%.
The remaining activity of `COc1cc2nccc(Oc3ccc(NC(=S)NC(=O)c4ccccc4C)cc3)c2cc1OC` is reported as 86.9%.

Set 2
Structure (SMILES): COc1ccc2cc(OCC3(C(=O)O)CN(C(=O)c4ccc(F)cc4)C3)ccc2c1
Method: competition with immobilised ligand
Concentration: 1 µM
For PIK3CA (Homo sapiens, UniProt P42336, M1043I); cell-free assay: remaining binding read 100%.
NEK2 (Homo sapiens, UniProt P51955); cell-free assay — remaining binding: 100%.
ACVRL1 (Homo sapiens, UniProt P37023); binding — remaining binding: 93%.
It gave 94% for remaining binding (EIF2AK1 (Homo sapiens, UniProt Q9BQI3); cell-free assay).
ZAP70 (Homo sapiens, UniProt P43403); cell-free assay — remaining binding: 99%.
For STK32B (Homo sapiens, UniProt Q9NY57); cell-free assay: remaining binding read 100%.
The remaining binding was 100% (Mast/stem cell growth factor receptor Kit, autoinhibited (KIT, Homo sapiens, UniProt P10721); cell-free assay).
TESK1 (Homo sapiens, UniProt Q15569); cell-free assay — remaining binding: 98%.
It gave 85% for remaining binding (SLK (Homo sapiens, UniProt Q9H2G2); cell-free assay).

Set 3
Target: Histone acetyltransferase KAT6A, both winged helices, GST fusion (KAT6A, Homo sapiens, UniProt Q92794, residues 1-181)
Method: protein binding microarray
Molecule type: double-stranded DNA, one strand shown
Medium: in vitro
Concentration: not given
Notes: 8-mer, flanks averaged, mean of 2 arrays, mostly near background
Reference: not given
Reading: higher = stronger binding
Residues (chain): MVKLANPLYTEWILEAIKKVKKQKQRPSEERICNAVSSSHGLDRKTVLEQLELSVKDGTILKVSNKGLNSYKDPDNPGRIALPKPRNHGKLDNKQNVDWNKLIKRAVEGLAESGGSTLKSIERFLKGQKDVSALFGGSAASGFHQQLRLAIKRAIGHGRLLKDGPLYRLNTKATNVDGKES
`ATAGGTAG` gave an E-score of -0.27.
`GCGCATCA` gave an E-score of 0.246.
With `CAGACAAA` the E-score was -0.134.
For `TCGACTAA`, the E-score was -0.112.
The E-score of `ATATTAGA` is reported as -0.0296.
For `CATTTGAG`, the E-score was -0.166.
`ACCTTAAT` gave an E-score of -0.223.
The E-score of `CCATCATC` is reported as -0.0865.

Other studies, line by line
The fold induction of `PhoQ, residues 284 288 289 292 302 303 ASVMEA` is reported as 0.587 (PhoP, residues 12 14 15 18 19 LQHIR (Escherichia coli, UniProt P23836); Sort-seq, refers to: YFP reporter; E. coli; PhoQ-PhoP variant library, together with: 10 µM Mg2+; reference: high Mg2+ state, higher = stronger signaling).

For quick reference, copied from above (set 2):
NEK2 (Homo sapiens, UniProt P51955); cell-free assay — remaining binding: 100%.
ACVRL1 (Homo sapiens, UniProt P37023); binding — remaining binding: 93%.
It gave 94% for remaining binding (EIF2AK1 (Homo sapiens, UniProt Q9BQI3); cell-free assay).
